Measurements gathered from unrelated publications.
Compare with care: the assays were run in different laboratories. “And” joins repeats or separate records; there may be more than shown. ± marks the error that the study gave. ≈ marks a conversion by molar mass, not a printed value.

SMILES = CC(=O)N([O-])CCCCCNC(=O)CCC(=O)N([O-])CCCCCNC(=O)CCC(=O)N([O-])CCCCCN.[89Zr+4]; assay = radio-TLC; test system = aqueous buffer; setting = 5 d, pH 5, 37 °C, 89Zr-labelled complex, added: DTPA 1000-fold excess; measurement = intact complex; result = 68.9 ± 2%
SMILES = Cc1nc(N)nc2c1C(=O)N[C@@H](c1ccc(F)cc1-c1cccc(OCC[18F])n1)C2; test system = Wistar rats, blood; setting = intravenous, dose not given, 35 min; measurement = radioactivity in blood cells; result = 40 ± 1%
SMILES = C/C(N)=N/C(=N\S(=O)(=O)c1ccc(C(F)(F)F)cc1)N1C[C@H](c2ccccc2)C(c2ccc(Cl)cc2)=N1; test system = female cynomolgus monkey, plasma; setting = intravenous, 2 mg/kg; measurement = clearance; result = 0.114 L/h/kg
SMILES = CCCCC/C=C\CCCO[Si](CCCN(C)C)(OCCC/C=C\CCCCC)OCCC/C=C\CCCCC; setting = pH 7.5, formulated; measurement = zeta potential; result = -0.11 mV
SMILES = CC[C@H](C)[C@@H]1NC(=O)[C@H](Cc2ccc(O)cc2)NC(=O)CCCSC[C@@H](C(=O)N(CC(=O)N[C@@H](CC(C)C)C(=O)NCC(N)=O)Cc2ccc(F)cc2)NC(=O)[C@H](CC(N)=O)NC(=O)[C@H](CCC(N)=O)NC1=O; test system = human; setting = intranasal, 400 µg single dose; measurement = subjects with any TEAE; result = 50%
SMILES = CC(C)=CCC1=C([O-])C(=O)c2ccccc2C1=O.CC(C)=CCC1=C([O-])C(=O)c2ccccc2C1=O.O.[Cu+2].c1ccc(-c2ccccn2)nc1; assay = cyclic voltammetry; test system = CH2Cl2; setting = 0.1 mM, added: 0.1 M Bu4NPF6; how to read = reference: Ag/AgCl (sat. KOH); measurement = anodic peak potential; result = -1.45 V
SMILES = CCCC[C@H](NC(=O)CNC(=O)CNC(=O)[C@H](CCCCNC(=O)[C@H](CC(=O)O)NC(=O)C(C)c1ccc(CC(C)C)cc1)NC(=O)CN1CCN(CC(=O)O)CCN(CC(=O)O)CCN(CC(=O)O)CC1)C(=O)N[C@H]1CC(=O)NCCCC[C@@H](C(N)=O)NC(=O)[C@H](Cc2c[nH]c3ccccc23)NC(=O)[C@H](CCCNC(=N)N)NC(=O)[C@@H](Cc2ccccc2)NC(=O)[C@H](Cc2c[nH]cn2)NC1=O (stereo partly shown) [lutetium-177 labelled]; test system = C57 mice, tumour; setting = intravenous, 0.037 MBq, 4 h; how to read = reference: liver; measurement = tumour-to-tissue ratio; result = 9.73
SMILES = N#Cc1cccc(-c2ccc3ncc(-c4cc(F)cc(F)c4)c(N4CCC(NC(=O)OC5OC(C(=O)O)C(O)C(O)C5O)CC4)c3c2)c1O (stereo not shown); test system = human, urine and faeces; setting = oral, 20 mg, added: 14C-labelled drug; how to read = reference: dose; measurement = excreted radioactivity; result = 2.7%
SMILES = CN(C)C(=O)c1cccc(N2Cc3cnn(Cc4ccc(F)cc4)c3C2)c1; test system = MDCK-MDR1; measurement = Papp; result = 74 nm/s
SMILES = O=C(NCC1OC2CCC=CCCC2O1)c1ccc([18F])nc1 (stereo not shown); test system = healthy female BALB/c nude mice, small intestine; setting = intravenous, 7.4 MBq per mouse, 5 min; measurement = tissue uptake; result = 8.2 ± 1.2 %ID/g
SMILES = CCCCN1C(=O)c2cccc3c(NCCCCCCCCCCN4CCOCC4)ccc(c23)C1=O; test system = ethyl acetate; measurement = fluorescence lifetime; result = 9.6 ns
SMILES = O=C(Nc1cnccc1-c1ccc([18F])nc1)c1ccnc(NC(=O)C2CC2)c1; test system = mice, transgenic, GSK-3β, early-stage, stomach; setting = intravenous, dose not given, 120 min, added: tariquidar 15 mg/kg i.v. pre-dose; measurement = SUV; result = 0.432
SMILES = CC(C)(O)c1ncc([S@](N)(=O)=NC(=O)Nc2c3c(cc4c2CCC4)CCC3)s1; assay = refers to: general and administration-site disorders; test system = healthy human volunteers; setting = oral, 25 mg twice daily, 14 days, enteric-coated tablet; measurement = subjects with adverse events; result = 38%
SMILES = O=C(NNCc1ccccc1)C1(C(F)(F)F)CCC1; test system = PBS; setting = 2 h, pH 7.4, 25 °C, 2% DMSO; measurement = solubility; result = 366 µM (≈ 99.7 µg/mL)
SMILES = COc1cccc(OC)c1-c1cc(C(=O)NC2(C(=O)O)C3CC4CC(C3)CC2C4)nn1-c1ccc(C(=O)N(C)CCCN(C)CCCN(C)C(=O)[C@H](CCCCNC(=O)[C@H](CC(C)C)NC(=O)C2OC2C(=O)O)NC(=O)CN2CCN(CC(=O)[O-])CCN(CC(=O)[O-])CCN(CC(=O)[O-])CC2)cc1C(C)C.[177Lu+3] (mixture of isomers); test system = mouse, HT-29 xenograft, liver; setting = 72 h post injection; measurement = tissue uptake; result = 1 %ID/g
SMILES = C=CC(=O)Nc1cc(Nc2nccc(-c3cn(C)c4ccccc34)n2)c(OC)cc1N(C)CCNC; assay = storage stability; test system = human plasma; setting = 5 h, -80 °C, medium QC level; measurement = recovery; result = 95.5%
SMILES = Cc1noc(C)c1Cn1cc(N2C(=O)CN(Cc3cccc(OS(=O)(=O)O)c3)C2=O)cn1; test system = Sprague-Dawley rat, male; setting = oral, 100 mg/kg of parent drug, 1 h; measurement = plasma concentration; result = 3.73 µg/mL
SMILES = CSCC[C@H](N)C(=O)N[C@@H](CO)C(=O)N[C@H](C(=O)N[C@@H](C)C(=O)NCC(=O)N[C@@H](CC(C)C)C(=O)N[C@@H](CCCCN)C(=O)N[C@@H](CCCCN)C(=O)N[C@@H](CCC(N)=O)C(=O)N[C@@H](Cc1c[nH]c2ccccc12)C(=O)N[C@@H](Cc1ccc(O)cc1)C(=O)N[C@@H](CCCCN)C(=O)N[C@@H](C)C(=O)N[C@@H](CO)C(=O)N[C@@H](CCC(N)=O)C(=O)N[C@@H](CC(C)C)C(=O)N[C@H](C(=O)N[C@@H](CO)C(=O)N[C@@H](CCC(=O)O)C(=O)N[C@@H](CCCCN)C(=O)N[C@H](C(=O)NCC(=O)NCC(=O)N[C@@H](C)C(N)=O)C(C)C)C(C)C)C(C)C; assay = circular dichroism; test system = aqueous TFE; setting = 50 µM, pH 7.4, 20 °C; measurement = m value; result = 1.92 ± 0.3 kcal/mol/M
SMILES = O=C(Oc1ccccc1)c1ccc(O)cc1; test system = empty Transwells without cells; setting = 5 µM, 60 min, basolateral to apical; measurement = mass balance; result = 71%
SMILES = CC(C)[C@H](NC(=O)[C@H](Cc1c[nH]c2ccccc12)NC(=O)[C@H](CCCNC(=N)N)NC(=O)[C@H](CCCNC(=N)N)NC(=O)[C@@H](NC(=O)[C@@H](NC(=O)[C@H](CCCNC(=N)N)NC(=O)[C@@H](NC(=O)[C@@H](NC(=O)[C@H](CCCNC(=N)N)NC(=O)[C@H](CCCNC(=N)N)NC(=O)[C@@H](NC(=O)[C@H](Cc1c[nH]c2ccccc12)NC(=O)[C@H](CCCNC(=N)N)NC(=O)[C@H](CCCNC(=N)N)NC(=O)[C@@H](NC(=O)[C@H](CCCNC(=N)N)NC(=O)[C@H](CCCNC(=N)N)NC(=O)[C@@H](NC(=O)[C@H](Cc1c[nH]c2ccccc12)NC(=O)[C@H](CCCNC(=N)N)NC(=O)[C@@H](N)CCCNC(=N)N)C(C)C)C(C)C)C(C)C)C(C)C)C(C)C)C(C)C)C(C)C)C(=O)N[C@@H](CCCNC(=N)N)C(=O)N[C@@H](CCCNC(=N)N)C(=O)O; assay = dipstick; test system = CD-1 mice; setting = intravenous, 15 mg/kg, 6-24 h; measurement = urine specific gravity; result = 1.01 g/mL
SMILES = CC[C@H](C)[C@H](NC(=O)[C@H](CCCCN)NC(C)=O)C(=O)N[C@@H](C)C(=O)N[C@@H](C)C(=O)N[C@@H](CC(C)C)C(=O)N[C@@H](CCCCN)C(=O)N[C@@H](CCC(=O)O)C(=O)N[C@@H](CCCCN)C(=O)N[C@H](C(=O)N[C@@H](C)C(=O)N[C@@H](C)C(=O)N[C@@H](CC(C)C)C(=O)N[C@@H](CCCCN)C(=O)N[C@@H](CCC(=O)O)C(=O)N[C@@H](CCCCN)C(=O)N[C@H](C(=O)N[C@H]1CSCc2ccc(cc2)CSC[C@@H](C(=O)NCC(=O)N[C@@H](Cc2c[nH]c3ccccc23)C(N)=O)NC(=O)[C@H](CCCCN)NC(=O)[C@H](CC(C)C)NC(=O)[C@H](C)NC1=O)[C@@H](C)CC)[C@@H](C)CC; assay = circular dichroism at 222 nm; test system = PBS; setting = pH 7.4, 20 °C, single peptide 50 µM total; measurement = helicity; result = 49%
SMILES = C=C(NC(=O)c1csc(-c2nc3c(cc2O)-c2nc(cs2)C(=O)NC(C(C)O)C(=O)NC(=C(C)OC)c2nc(cs2)C(=O)NC2c4nc(cs4)C(=O)NC(COC(=O)c4c5c6c(cccc6n4O)COC(=O)C(OC4CC(C)(O)C(N(C)C)C(C)O4)C2OC5)c2nc-3cs2)n1)C(N)=O (stereo not shown); test system = ICR mice, Streptococcus pneumoniae ATCC 49169 infected, immunocompromised, blood; setting = intravenous, 8 mg/kg three times daily; measurement = AUC(0-t); result = 608 nM·h
SMILES = CC1Cc2ccccc2N1C(=O)CN1CCN(Cc2ccccc2)CC1 (stereo not shown); test system = female NMRI mice, brain; setting = intraperitoneal, 10 mg/kg free base, 60 min; measurement = concentration; result = 0.699 µg/mL and 0.735 µg/mL
SMILES = COc1cccc(OC)c1-c1cc(C(=O)NC2(C(=O)O)C3CC4CC(C3)CC2C4)nn1-c1ccc(C(=O)N(C)CCOCCOCCN(C)C(=O)[C@H](CCCCNC(=O)[C@H](CC(C)C)NC(=O)C2OC2C(=O)O)NC(=O)CN2CCN(CC(=O)[O-])CCN(CC(=O)[O-])CCN(CC(=O)[O-])CC2)cc1C(C)C.[177Lu+3] (mixture of isomers); test system = mouse, HT-29 xenograft; setting = 4 h post injection, biodistribution; how to read = reference: tumour over lung uptake; measurement = tumour-to-lung ratio; result = 3
SMILES = O=S(=O)(N[C@H]1CCO[C@@H](C2c3ccc(F)cc3CCc3cc(F)ccc32)C1)c1ccc(OC(F)(F)F)cc1; test system = mouse; setting = oral, 30 mg/kg, 2 h; how to read = reference: brain over plasma; measurement = tissue/plasma ratio; result = 0.4

Some of these lines once more:
SMILES = CC(C)=CCC1=C([O-])C(=O)c2ccccc2C1=O.CC(C)=CCC1=C([O-])C(=O)c2ccccc2C1=O.O.[Cu+2].c1ccc(-c2ccccn2)nc1; assay = cyclic voltammetry; test system = CH2Cl2; setting = 0.1 mM, added: 0.1 M Bu4NPF6; how to read = reference: Ag/AgCl (sat. KOH); measurement = anodic peak potential; result = -1.45 V
SMILES = O=C(NCC1OC2CCC=CCCC2O1)c1ccc([18F])nc1 (stereo not shown); test system = healthy female BALB/c nude mice, small intestine; setting = intravenous, 7.4 MBq per mouse, 5 min; measurement = tissue uptake; result = 8.2 ± 1.2 %ID/g
